Assay results collected from several papers.
Each line is one published result; not all experiments were run side by side. Values joined by “and” are separate records of one study, mostly repeats; a detail may differ. ± marks the error that the study gave.

[131I-].[Na+]: “patients requiring second dose” 7.2% (paediatric patients, differentiated thyroid carcinoma, intermediate risk; dose not given, retrospective).
C[N+](C)(C)CCOP(=O)(O)OP(=O)([O-])OC[C@H]1O[C@@H](n2ccc(N)nc2=O)[C@H](O)[C@@H]1O — result for “z-scored log2 fold change”: 0.0493 (binding, equilibrium dialysis LC-MS; 5 µM, thermostabilized A2AR-BRIL construct; relative to: no-protein control, direction not given).
For CCCCC1(CCCC)CN(c2ccccc2)c2cc(SC)c(OCC(=O)N[C@@H](C(=O)NCC(=O)O)c3ccccc3)cc2S(=O)(=O)C1, the serum LDL-C was 95.1 mg/dL (measured: LDL cholesterol; human, serum; 10 mg once daily, day 5).
C[C@H](NC(=O)c1c(C(F)F)nn(C)c1Oc1cccc(C(F)(F)F)c1)c1ccc(C(=O)O)cc1 — result for “median overall survival”: 4 months (human, advanced tumours; 250 mg).
Clc1cc2c(cc1Cl)Oc1cc(Cl)c(Cl)cc1O2 — result for LTE4 level: “no effect” (female Sprague-Dawley rat, liver; dose not given; relative to: vehicle).
For Cc1cc(C2CCCCC2)n(O)c(=O)c1, the AC50 was 1.56 µM (AlphaScreen counterscreen; biotin-BSA bead system).
For CS(=O)(=O)c1ccc(-c2nnc(/C=C/c3nnc(-c4ccc(C#N)cc4)o3)n2-c2ccccc2Cl)nc1, “normalized enrichment score” read 1.84 (RNA-seq GSEA, measured: HALLMARK_FATTY_ACID_METABOLISM; organoids, small intestinal, Apc Q1405X, mouse; dose not given, 3 days, wild-type organoids; relative to: DMSO, direction not given).
CC(C)C1CCC(N2CCC(N3C(=O)C(=O)c4ccccc43)CC2)CC1 (centres unmarked): “urine flow rate” “increased” (conscious Sprague-Dawley rat; intravenous bolus, 100 nmol/kg).
C[C@]1(CO)Cc2ncn(-c3ccc(C#N)c(Cl)c3)c2C(=O)O1 — result for “urinary sodium excretion 0-24 h”: 137 mmol (Japanese subjects; 20 mg single dose).
C[C@]12CC[C@H](O)C[C@H]1CC[C@@H]1[C@@H]2CC[C@]2(C)[C@@H](c3ccc(=O)oc3)CC[C@]12O has a tumour volume of 25.3 mm3 and 37.4 mm3 and 48.4 mm3 and 56 mm3 and 32.6 mm3 and 28.6 mm3 and 29.1 mm3 (female nude mouse LCC2 xenograft; 1.0 mg/kg, day 5, tamoxifen-resistant).
CCCCCCCCCCCCCCCC(=O)N[C@H]1C[C@@H](O)[C@@H](O)NC(=O)[C@@H]2[C@@H](O)[C@@H](C)CN2C(=O)[C@H]([C@@H](C)O)NC(=O)[C@H]([C@H](O)[C@@H](O)c2ccc(O)cc2)NC(=O)[C@@H]2C[C@@H](O)CN2C(=O)[C@H]([C@@H](C)O)NC1=O gave a maximum fusion of 40 ± 10% (calcein leakage; DOPC/DOPG/CHOL liposomes; concentration not given, added: 20 wt% PEG-8000).
Cc1cn(-c2cc(NC(=O)c3ccc(C)c(Nc4nccc(-c5cccnc5)n4)c3)cc(C(F)(F)F)c2)cn1 — result for “mean difference in change”: 0 (measured: NPI caregiver distress score; human; dose not given, 12 months versus baseline, unit not given; relative to: placebo).
The protein level of C[C@H]1O[C@@H](O[C@H]2CC[C@@]3(C)[C@@H](CC[C@]4(C)[C@@H]3C=C[C@]35OC[C@@]6(CCC(C)(C)C[C@H]63)[C@@H](O)C[C@]54C)[C@]2(C)CO)[C@H](O)[C@@H](O[C@@H]2O[C@H](CO)[C@@H](O)[C@H](O)[C@H]2O)[C@H]1O is reported as 0.602 and 0.759 and 0.852 (Western blot, measured: Deptor; mouse, hepatic SIRT1 knockdown (AAV8-TBG), liver; dose not given, high dose, unit not given, added: ethanol; relative to: β-actin).
For Cl.Cn1c(=O)n(CCCCN2CCC3(CC2)OCc2ccccc23)c2ccccc21, the effective dose was 32 mg/kg (food-maintained responding; Sprague-Dawley rat, male; intraperitoneal).
For CN1CCN(S(=O)(=O)c2cc([N+](=O)[O-])ccc2N(CCOS(C)(=O)=O)CCOS(C)(=O)=O)CC1, “EFS ratio (T/C)” read 13.2 (NSG mice, sample CA PDX; intraperitoneal, 25 mg/kg weekly x3; relative to: treated over vehicle).
Under “mean serum uric acid”, CCCc1nn(C)c2c(=O)[nH]c(-c3cc(S(=O)(=O)N4CCN(C)CC4)ccc3OCC)nc12 is recorded as 6.84 mg/dL (human patients on drug, serum or plasma; dose not given, main analysis, matching 1:10; relative to: off-drug patients, 5.94 mg/dL).
The HPTS leakage of CC(C)C[C@H](NC(=O)[C@H](CCC1CCCCC1)NC(=O)[C@@H]1CCCN1C(=O)c1ccc(F)cc1)C(=O)NC(C)(C)C(=O)N[C@@H](CC(C)C)C(=O)N[C@@H](CC(C)C)C(=O)NC(C)(C)C(=O)NC(C)(C)C(=O)NCCC(=O)NC1(CN(C)C)CCC1 is reported as roughly 10% (pure DOPC GUVs; 1 µM).
Cc1nc(Nc2ccc(CC(=O)O)cc2)nc(Nc2ccc(F)c(C(F)(F)F)c2)c1C: serum ALP “no effect” (mice, chronic ethanol plus binge; intraperitoneal, 0.3 mg/kg daily, ethanol diet 4 weeks, dosed last two; relative to: vehicle).
For CC[C@H](C)[C@@H]1NC(=O)[C@@H]2CCCN2C(=O)[C@H](CC(C)C)NC(=O)[C@H](CC(C)C)NC(=O)CNC(=O)[C@@H](NC(=O)[C@@H](NC(=O)[C@H](CC(=O)O)NC(=O)CNC(=O)[C@@H](NC(=O)[C@H](C)NC(=O)CNC(=O)[C@H](CCCCN)NC(=O)[C@H](CC(C)C)NC(=O)[C@H](CC(C)C)NC(=O)[C@H](CCCCN)NC(=O)CNC(=O)[C@@H](NC(=O)[C@@H](N)CC(C)C)C(C)C)C(C)C)C(C)C)CSSC[C@@H](C(=O)O)NC1=O, “log2 fold change” read -1.08 (RNA-seq, measured: Samd9l; mouse, traumatic brain injury model, frontal cortex and hippocampus; dose not given; relative to: TBI alone).
With CC(=O)c1c(C)c2cnc(Nc3ccc(C4CCN(CCS(C)(=O)=O)CC4)cn3)nc2n(C2CCCC2)c1=O the T/C was -36% (mouse Colo-205 xenograft; oral, 80 mg/kg twice daily, 14 days).

Repeated from above:
For CS(=O)(=O)c1ccc(-c2nnc(/C=C/c3nnc(-c4ccc(C#N)cc4)o3)n2-c2ccccc2Cl)nc1, “normalized enrichment score” read 1.84 (RNA-seq GSEA, measured: HALLMARK_FATTY_ACID_METABOLISM; organoids, small intestinal, Apc Q1405X, mouse; dose not given, 3 days, wild-type organoids; relative to: DMSO, direction not given).
C[C@H](NC(=O)c1c(C(F)F)nn(C)c1Oc1cccc(C(F)(F)F)c1)c1ccc(C(=O)O)cc1 — result for “median overall survival”: 4 months (human, advanced tumours; 250 mg).
For CN1CCN(S(=O)(=O)c2cc([N+](=O)[O-])ccc2N(CCOS(C)(=O)=O)CCOS(C)(=O)=O)CC1, “EFS ratio (T/C)” read 13.2 (NSG mice, sample CA PDX; intraperitoneal, 25 mg/kg weekly x3; relative to: treated over vehicle).
